Published values of several laboratories.
Each line is one published result; not all experiments were run side by side. Several values in a cell are separate wells, animals, samples, runs or records. ± gives the spread as reported.

COc1ccc(C=NC(=S)NNC(=O)Cc2ccc(Cl)cc2Cl)cc1OC — IC50 (hydroxyl radical scavenging): 36.7 ± 2.25 µM
C[C@@H]1O[C@@H](O[C@@H]2[C@@H](O)[C@H](OCCc3ccc(O)c(O)c3)O[C@H](CO)[C@H]2OC(=O)/C=C/c2ccc(O)c(O)c2)[C@H](O)[C@H](O)[C@H]1O — IC50 (DPPH radical scavenging): 7.74 ± 0.06 µg/mL
CC(C)(C(=O)O)c1cc(=O)oc2cc(O)ccc12 — IC50 (DPPH radical scavenging, DPPH): 13.8 µg/mL
C=CC[C@@]1(C)NC(=O)CNC(=O)[C@H](Cc2c[nH]c3ccccc23)NC(=O)[C@H](CC(=O)O)NC(=O)[C@H](CCC(N)=O)NC(=O)[C@H](Cc2c[nH]c3ccccc23)NC(=O)[C@H](C(C)C)NC(=O)[C@@H](NC(=O)[C@@H](NC(C)=O)[C@@H](C)CC)CSSC[C@@H](C(=O)N[C@H](C(N)=O)[C@@H](C)O)NC(=O)[C@H](CCCNC(=N)N)NC(=O)[C@H](Cc2c[nH]cn2)NC1=O — IC50 (complement activation, inhibitor, ELISA, item: C3b; normal human serum): 0.65 ± 0.17 µM
O=C1CC(N(CCc2ccccc2)C(=S)Nc2ccccc2)C(=O)N1c1ccc(Br)cc1 (stereo not shown) — IC50 (CoA-CPM signal reduction, CPM fluorescence thiol; cell-free biochemical; assay interference counter-screen, with: CoA replacing acetyl-CoA): > 125 µM
CCOC(=O)C1=C(CCl)NC(=O)NC1c1cccc(OC)c1 (stereo not shown) — IC50 (nitric oxide scavenging): 107 µM
Oc1ccc(/C=C/c2cc(O)cc(O)c2)cc1 — IC50 (ABTS radical scavenging): 29.1 ± 0.57 µg/mL
Fc1ccccc1/C=N/N=C/c1ccccc1F — IC50 (nitric oxide scavenging; antioxidant): 2870 µM
O=C1Nc2ccccc2C1=Cc1ccccn1 — IC50 (platelet aggregation, inhibitor; platelets; with: collagen 15 µg/mL): 3 µM
O=C(Cc1ccc(Cl)cc1Cl)NNC(=S)N=Cc1ccc([N+](=O)[O-])cc1 — IC50 (hydroxyl radical scavenging): 52.7 ± 2.18 µM
Brc1ccc(/C=N/N=C/c2ccc(Br)cc2)cc1 — IC50 (ferric reducing antioxidant power, FRAP): > 3000 µM
Cc1c(CN2CCN(C(=O)[C@H](C)O)CC2)sc2c(N3CCOCC3)nc(-c3cnc(N)nc3)nc12 — IC50 (Akt phosphorylation; cancer patients, Neuroendocrine primary tumour, plasma): 0.0075 µg/mL
O=C(Cc1ccc(Cl)cc1Cl)NNC(=S)N=Cc1ccc(O)c(O)c1 — IC50 (hydroxyl radical scavenging): 52 ± 0.73 µM
Clc1ccc(/C=N/N=C/c2ccc(Cl)cc2)cc1 — IC50 (nitric oxide scavenging; antioxidant): 799 µM
O=C(O)c1ccccc1Nc1cccc(C(F)(F)F)c1 — IC50 (input conductance; vascular smooth muscle cells, guinea pig, AICA arteriole segments in situ): 33 µM
O=C1CCC(=O)N1c1ccc(Br)cc1 — IC50 (CoA-CPM signal reduction, CPM fluorescence thiol; cell-free biochemical; assay interference counter-screen, with: CoA replacing acetyl-CoA): > 125 µM
CC(=O)OC[C@H]1O[C@@H](OC[C@H]2O[C@@H](OC(=O)[C@]34CCC(C)(C)C[C@H]3C3=CC[C@@H]5[C@@]6(C)CC[C@H](O[C@@H]7OC[C@H](O)[C@H](O)[C@H]7O[C@@H]7O[C@H](CO)[C@@H](O)[C@H](O)[C@H]7O)C(C)(C)[C@@H]6CC[C@@]5(C)[C@]3(C)CC4)[C@H](O)[C@@H](O)[C@@H]2O)[C@H](O)[C@@H](O)[C@@H]1O[C@@H]1O[C@@H](C)[C@H](O)[C@@H](O)[C@H]1O — IC50 (peroxynitrite scavenging, dihydrorhodamine fluorescence): 52.8 ± 1.85 µM
Cc1c(C)c2c(c(C)c1O)CCC(C)(C(=O)O)O2 (stereo not shown) — IC50 (DPPH radical scavenging; cell-free): 5.54 ± 0.03 µg/mL
Brc1cccc(/C=N/N=C/c2cccc(Br)c2)c1 — IC50 (nitric oxide scavenging; antioxidant): 873 µM
CC[C@H](C)[C@H](NC(=O)[C@H](CCCNC(=N)N)NC(=O)[C@H](CCC(=O)O)NC(C)=O)C(=O)N[C@H]1CSSC[C@@H](C(=O)N[C@H](C(N)=O)[C@@H](C)O)NC(=O)[C@H](CCCNC(=N)N)NC(=O)[C@H](Cc2c[nH]cn2)NC(=O)[C@H](C)NC(=O)CNC(=O)[C@H](Cc2c[nH]c3ccccc23)NC(=O)[C@H](CC(=O)O)NC(=O)[C@H](CCC(N)=O)NC(=O)[C@H](Cc2c[nH]c3ccccc23)NC(=O)[C@H](C(C)C)NC1=O — IC50 (complement activation, inhibitor, ELISA, item: C3b; normal human serum): 0.84 ± 0.06 µM
O=S1(=O)CC(Sc2ccc(Cl)cc2)c2ccccc21 (stereo not shown) — IC50 (CoA-CPM signal reduction, CPM fluorescence thiol; cell-free biochemical; assay interference counter-screen, with: CoA replacing acetyl-CoA): > 125 µM
CC[C@H](C)[C@H](NC(C)=O)C(=O)N[C@H]1CSSC[C@@H](C(=O)N[C@H](C(N)=O)[C@@H](C)O)NC(=O)[C@H](CCCNC(=N)N)NC(=O)[C@H](Cc2c[nH]cn2)NC(=O)[C@](C)(CC)NC(=O)CNC(=O)[C@H](Cc2c[nH]c3ccccc23)NC(=O)[C@H](CC(=O)O)NC(=O)[C@H](CCC(N)=O)NC(=O)[C@H](Cc2c[nH]c3ccccc23)NC(=O)[C@H](C(C)C)NC1=O — IC50 (complement activation, inhibitor, ELISA, item: C3b; normal human serum): 0.45 ± 0.14 µM
COc1ccccc1C=NC(=S)NNC(=O)Cc1ccc(Cl)cc1Cl — IC50 (hydroxyl radical scavenging): 64.7 ± 2.43 µM
COc1ccc2[nH]c3c(c2c1)CCN(C1CC(=O)N(c2ccc(Br)cc2)C1=O)C3 (stereo not shown) — IC50 (CoA-CPM signal reduction, CPM fluorescence thiol; cell-free biochemical; assay interference counter-screen, with: CoA replacing acetyl-CoA): > 125 µM
O=C(COC(=O)c1ccccc1Nc1cccc(C(F)(F)F)c1)NNS(=O)(=O)c1ccccc1 — IC50 (nitric oxide scavenging, Griess; 30 min, 25 °C, with: sodium nitroprusside 5 mM): 238 µM and 239 µM
CCC(=O)Nc1nc(-c2ccccc2)ns1 — IC50 (CoA-CPM signal reduction, CPM fluorescence thiol; cell-free biochemical; assay interference counter-screen, with: CoA replacing acetyl-CoA): > 125 µM
Brc1ccccc1/C=N/N=C/c1ccccc1Br — IC50 (ferric reducing antioxidant power, FRAP): > 3000 µM
Sc1nnc(-c2ccncc2)o1 — IC50 (CoA-CPM signal reduction, CPM fluorescence thiol; cell-free biochemical; assay interference counter-screen, with: CoA replacing acetyl-CoA): 250 ± 90 µM
CC[C@H](C)[C@H](NC(=O)[C@H](CO)NC(=O)[C@H](CCCNC(=N)N)NC(C)=O)C(=O)N[C@H]1CSSC[C@@H](C(=O)N[C@H](C(N)=O)[C@@H](C)O)NC(=O)[C@H](CCCNC(=N)N)NC(=O)[C@H](Cc2c[nH]cn2)NC(=O)[C@H](C)NC(=O)CNC(=O)[C@H](Cc2c[nH]c3ccccc23)NC(=O)[C@H](CC(=O)O)NC(=O)[C@H](CCC(N)=O)NC(=O)[C@H](Cc2ccc3ccccc3c2)NC(=O)[C@H](C(C)C)NC1=O — IC50 (complement activation, inhibitor, ELISA, item: C5b-9; normal human serum): 0.65 ± 0.1 µM
CCOC(=O)C1=C(CCl)NC(=O)NC1c1ccccc1 (stereo not shown) — IC50 (nitric oxide scavenging): 226 µM
Cc1c(C)c2c(c(C)c1O)CC[C@@](C)(CCC[C@H](C)CCC[C@H](C)CCCC(C)C)O2 — IC50 (DMPD radical scavenging): 7.11 µg/mL
O=C1CC(N2CCC(c3nc4ccccc4o3)CC2)C(=O)N1c1cc(Cl)cc(Cl)c1 (stereo not shown) — IC50 (CoA-CPM signal reduction, CPM fluorescence thiol; cell-free biochemical; assay interference counter-screen, with: CoA replacing acetyl-CoA): > 125 µM
O=C(Cc1ccc(Cl)cc1Cl)NNC(=S)N=Cc1ccccc1O — IC50 (iron chelation; cell-free; EDTA as standard): 55.7 ± 1.52 µM
CC(=O)N[C@@H](CC(N)=O)C(=O)N[C@@H](CCCNC(=N)N)C(=O)N[C@@H](CC(C)C)C(=O)N[C@H]1CSSC[C@@H](C(=O)N[C@H](C(N)=O)[C@@H](C)O)NC(=O)[C@H](CCCNC(=N)N)NC(=O)[C@H](Cc2c[nH]cn2)NC(=O)[C@H](Cc2cccc3ccccc23)NC(=O)CNC(=O)[C@H](Cc2c[nH]c3ccccc23)NC(=O)[C@H](CC(=O)O)NC(=O)[C@H](CCC(N)=O)NC(=O)[C@H](Cc2cccc3ccccc23)NC(=O)[C@H](C(C)C)NC1=O — IC50 (complement activation, inhibitor, ELISA, item: C5b-9; normal human serum): 1.34 ± 0.09 µM
CCN(CC)c1ccc(/C=N/c2ccccc2F)c(O)c1 — IC50 (nitric oxide scavenging, sodium nitroprusside): 79.4 µM
CC[C@H](C)[C@H](NC(C)=O)C(=O)N[C@H]1CSSC[C@@H](C(=O)N[C@H](C(N)=O)[C@@H](C)O)NC(=O)[C@H](CCCNC(=N)N)NC(=O)[C@H](Cc2c[nH]cn2)NC(=O)[C@H](Cc2cccc3ccccc23)NC(=O)CNC(=O)[C@H](Cc2c[nH]c3ccccc23)NC(=O)[C@H](CC(=O)O)NC(=O)[C@H](CCC(N)=O)NC(=O)[C@H](Cc2c[nH]c3ccccc23)NC(=O)[C@H](C(C)C)NC1=O — IC50 (complement activation, inhibitor, ELISA, item: C3b; normal human serum): 2.27 ± 0.39 µM
CCOC(=O)C1=C(CSC2=NCCS2)NC(=O)NC1c1cccc(Cl)c1 (stereo not shown) — IC50 (nitric oxide scavenging): 107 µM

Repeated from above:
CC(C)(C(=O)O)c1cc(=O)oc2cc(O)ccc12 — IC50 (DPPH radical scavenging, DPPH): 13.8 µg/mL
C=CC[C@@]1(C)NC(=O)CNC(=O)[C@H](Cc2c[nH]c3ccccc23)NC(=O)[C@H](CC(=O)O)NC(=O)[C@H](CCC(N)=O)NC(=O)[C@H](Cc2c[nH]c3ccccc23)NC(=O)[C@H](C(C)C)NC(=O)[C@@H](NC(=O)[C@@H](NC(C)=O)[C@@H](C)CC)CSSC[C@@H](C(=O)N[C@H](C(N)=O)[C@@H](C)O)NC(=O)[C@H](CCCNC(=N)N)NC(=O)[C@H](Cc2c[nH]cn2)NC1=O — IC50 (complement activation, inhibitor, ELISA, item: C3b; normal human serum): 0.65 ± 0.17 µM
O=C1CC(N(CCc2ccccc2)C(=S)Nc2ccccc2)C(=O)N1c1ccc(Br)cc1 (stereo not shown) — IC50 (CoA-CPM signal reduction, CPM fluorescence thiol; cell-free biochemical; assay interference counter-screen, with: CoA replacing acetyl-CoA): > 125 µM
CCOC(=O)C1=C(CCl)NC(=O)NC1c1cccc(OC)c1 (stereo not shown) — IC50 (nitric oxide scavenging): 107 µM
Oc1ccc(/C=C/c2cc(O)cc(O)c2)cc1 — IC50 (ABTS radical scavenging): 29.1 ± 0.57 µg/mL
